# Published values of several laboratories.
# Every numbered part comes from another study and shows a few of its results, in no order.
# Chain of UniProt Q96LR5 (whole entry, looked up): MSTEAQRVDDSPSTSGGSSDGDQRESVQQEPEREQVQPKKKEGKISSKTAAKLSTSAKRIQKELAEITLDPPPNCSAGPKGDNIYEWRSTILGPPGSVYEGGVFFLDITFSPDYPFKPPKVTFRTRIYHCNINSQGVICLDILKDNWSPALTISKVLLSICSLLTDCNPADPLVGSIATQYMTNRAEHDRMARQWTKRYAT
# Chain of UniProt P62256 (whole entry, looked up): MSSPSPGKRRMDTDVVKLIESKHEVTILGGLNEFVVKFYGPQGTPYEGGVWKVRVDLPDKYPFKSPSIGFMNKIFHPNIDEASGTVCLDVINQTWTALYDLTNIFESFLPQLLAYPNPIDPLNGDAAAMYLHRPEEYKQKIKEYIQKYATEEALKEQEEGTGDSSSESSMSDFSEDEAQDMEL
# Chain of UniProt P51965 (whole entry, looked up): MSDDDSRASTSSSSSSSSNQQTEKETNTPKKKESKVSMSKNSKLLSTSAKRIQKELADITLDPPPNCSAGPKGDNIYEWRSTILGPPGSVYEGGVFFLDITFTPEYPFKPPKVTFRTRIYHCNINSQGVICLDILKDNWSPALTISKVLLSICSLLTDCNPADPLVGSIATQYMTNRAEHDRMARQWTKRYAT
# Chain of UniProt P60604 (whole entry, looked up): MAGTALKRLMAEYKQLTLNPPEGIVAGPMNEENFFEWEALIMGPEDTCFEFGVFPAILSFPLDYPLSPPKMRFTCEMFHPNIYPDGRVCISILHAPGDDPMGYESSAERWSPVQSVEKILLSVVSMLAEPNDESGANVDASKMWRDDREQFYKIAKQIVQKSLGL
# Chain of UniProt Q13404 (whole entry, looked up): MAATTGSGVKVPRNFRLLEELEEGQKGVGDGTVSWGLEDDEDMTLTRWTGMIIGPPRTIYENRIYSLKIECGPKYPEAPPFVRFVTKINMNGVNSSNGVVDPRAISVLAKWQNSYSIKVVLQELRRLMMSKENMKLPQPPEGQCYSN
# Chain of UniProt P49427 (whole entry, looked up): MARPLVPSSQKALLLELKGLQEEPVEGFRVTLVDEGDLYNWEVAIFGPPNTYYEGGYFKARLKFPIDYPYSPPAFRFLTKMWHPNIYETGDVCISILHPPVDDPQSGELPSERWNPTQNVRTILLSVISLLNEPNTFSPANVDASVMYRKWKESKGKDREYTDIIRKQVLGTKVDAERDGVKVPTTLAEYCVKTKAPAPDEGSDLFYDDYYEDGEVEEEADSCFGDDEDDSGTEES
# Chain of UniProt P61088 (whole entry, looked up): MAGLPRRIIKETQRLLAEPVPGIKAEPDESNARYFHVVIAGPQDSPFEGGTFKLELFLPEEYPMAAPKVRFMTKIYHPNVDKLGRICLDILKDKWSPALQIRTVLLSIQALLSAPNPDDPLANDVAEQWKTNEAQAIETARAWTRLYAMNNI
# Chain of UniProt Q8WVN8 (whole entry, looked up): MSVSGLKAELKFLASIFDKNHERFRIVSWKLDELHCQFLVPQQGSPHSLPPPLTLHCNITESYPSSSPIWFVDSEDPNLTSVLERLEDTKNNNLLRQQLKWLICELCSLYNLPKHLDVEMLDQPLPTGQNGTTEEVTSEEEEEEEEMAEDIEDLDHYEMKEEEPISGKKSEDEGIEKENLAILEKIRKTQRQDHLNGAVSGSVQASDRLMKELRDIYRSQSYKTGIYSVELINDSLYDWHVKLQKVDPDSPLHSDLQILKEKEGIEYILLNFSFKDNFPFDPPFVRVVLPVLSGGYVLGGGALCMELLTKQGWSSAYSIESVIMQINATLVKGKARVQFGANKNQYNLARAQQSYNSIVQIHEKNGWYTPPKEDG
# Chain of UniProt Q5VVX9 (whole entry, looked up): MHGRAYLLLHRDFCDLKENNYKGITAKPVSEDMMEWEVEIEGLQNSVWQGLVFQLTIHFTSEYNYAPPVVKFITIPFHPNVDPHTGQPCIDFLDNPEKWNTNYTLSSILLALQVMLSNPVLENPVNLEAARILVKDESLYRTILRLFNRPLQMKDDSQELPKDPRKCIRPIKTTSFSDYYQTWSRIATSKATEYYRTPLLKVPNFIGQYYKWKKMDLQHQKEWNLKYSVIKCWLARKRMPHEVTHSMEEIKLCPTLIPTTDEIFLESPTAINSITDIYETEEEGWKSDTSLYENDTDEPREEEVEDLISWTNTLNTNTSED
# Chain of UniProt O14933 (whole entry, looked up): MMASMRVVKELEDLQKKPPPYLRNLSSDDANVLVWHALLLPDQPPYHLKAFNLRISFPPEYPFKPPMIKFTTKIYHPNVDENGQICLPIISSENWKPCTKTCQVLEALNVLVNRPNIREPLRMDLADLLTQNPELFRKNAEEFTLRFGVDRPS
# Chain of UniProt Q15819 (whole entry, looked up): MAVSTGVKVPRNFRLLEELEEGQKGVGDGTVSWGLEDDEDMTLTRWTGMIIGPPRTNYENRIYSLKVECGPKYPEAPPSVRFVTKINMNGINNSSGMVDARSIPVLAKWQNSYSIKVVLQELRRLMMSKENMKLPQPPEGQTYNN

# Sample 1
# Target: RING finger protein unkempt homolog, zinc fingers 1-6, GST-SBP tag (UNK, Homo sapiens, UniProt Q9C0B0, residues 30-357)
# Method: RNA Bind-n-Seq
# Molecule type: RNA
# Sample: in vitro
# Concentration: not given
# Setting: RNA with constant flanks, human-mouse chimeric sites, ends assumed
# Reference: input RNA pool
# Reading: higher = stronger binding
# All sequences stand within: GGGAGUUCUACAGUCCGACGAUC … CAACAGAGGAUUGAGCAUCA
# Residues (chain): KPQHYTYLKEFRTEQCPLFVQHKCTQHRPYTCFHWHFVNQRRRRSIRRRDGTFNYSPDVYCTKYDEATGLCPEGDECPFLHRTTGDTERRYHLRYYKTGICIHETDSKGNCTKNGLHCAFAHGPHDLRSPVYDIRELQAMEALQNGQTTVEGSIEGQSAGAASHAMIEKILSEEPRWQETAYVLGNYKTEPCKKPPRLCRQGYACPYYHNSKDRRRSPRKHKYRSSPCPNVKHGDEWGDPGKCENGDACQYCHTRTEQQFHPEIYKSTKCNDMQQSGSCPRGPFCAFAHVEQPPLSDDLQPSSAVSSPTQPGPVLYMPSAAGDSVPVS
Strand,bound/input enrichment [ratio]
GGGACUGAUUCAUCCCAAGGACAGGCCACCCCAUUUGGUGUUUGGAAUGAUGACAGUAUGUUAGGGCCUAGUCAAAAUGUUGAAGCUGAGUCAAUUCAGGAUGCCAUGAGUAUGGAAGAG,0.504
CACAGAGCAGCACCUACCCCCUCCUCCUUUCCACACCUGCAAACUCUUUUGCCUGGGCUGAAUAUUUAGUGUAAUUACAUCUCAGCUUUGAGGGCUCCUGUGGCAAAAUACCCGGAUAAA,0.626
GAAACAUUUAAAUUUAAAGAAGCUGUUGUUUUAGGGAGUACGGACUUUCUAGAAGAUGAUAUAGAGAAAAUUGUAGAAGAACUGGGGAAAGAGUAUAAGGGCAACGCUUAUCAUUUAAUG,3.85
GUUGCCAGCUUCCGGUUCCGUUGGGCUCGGUUCUCUCAGUGCUACGUUGUCUCUACGCUCUCAAUCCGCCAUCCAACAAACAUGGAUCAGGUAAUGCAGUUUGUGGAUGAGCCAAGUCAG,0.0434
CUUAAUGUUAAUAUUUUUAAAGGAAGCAAGCUAAAAUGUCUGCUUUUGGUACAACACGCAUUAAUAAAAGGUUAAGUUUUGUUUUCCACUGAAGUACUAUUUAACAUACAUCUCAGAAAC,0.202
UCUGGUCACACUCGUGUGUAUGGUGUUUGCUUUGUGGACACUUCACUGGGAAAGUUUUUCAUCGGCCAGUUUUCAGAUGACCGCCACUGUUCCAGAUUUAGGACGCUAGUGGCUCACUAU,0.248
GCUGAAAAUGAAGAAGAGGCAGCUGAUGUCUGGUACAACCUGGGGCACAUAGCUGUGGGAAUCGGAGAUACAAACUUGGCCCACCAAUGCUUCAGGCUGGCUCUGGUCAACAACAACCAC,0.152
CCCCAAUACCAUUUGCAGGUCUGGAACCUGCAUUCUUUUAAAGUUUUACAUGUAUACAUUUUAGGGCUGUAGAUUUAUUUUCCUGGUUUUGUUUUUCAUUGCUGACUUUUGAGCACAGAA,2.22

# Sample 2
# Target: Sal-like protein 4, full length isoform B (SALL4, Homo sapiens, UniProt Q9UJQ4-2, residues 1-616)
# Method: universal PBM
# Molecule type: double-stranded DNA, one strand shown
# Sample: in vitro
# Concentration: not given
# Setting: 8-mer, flanks averaged, mean of replicates
# Reading: higher = stronger binding
# Residues (chain): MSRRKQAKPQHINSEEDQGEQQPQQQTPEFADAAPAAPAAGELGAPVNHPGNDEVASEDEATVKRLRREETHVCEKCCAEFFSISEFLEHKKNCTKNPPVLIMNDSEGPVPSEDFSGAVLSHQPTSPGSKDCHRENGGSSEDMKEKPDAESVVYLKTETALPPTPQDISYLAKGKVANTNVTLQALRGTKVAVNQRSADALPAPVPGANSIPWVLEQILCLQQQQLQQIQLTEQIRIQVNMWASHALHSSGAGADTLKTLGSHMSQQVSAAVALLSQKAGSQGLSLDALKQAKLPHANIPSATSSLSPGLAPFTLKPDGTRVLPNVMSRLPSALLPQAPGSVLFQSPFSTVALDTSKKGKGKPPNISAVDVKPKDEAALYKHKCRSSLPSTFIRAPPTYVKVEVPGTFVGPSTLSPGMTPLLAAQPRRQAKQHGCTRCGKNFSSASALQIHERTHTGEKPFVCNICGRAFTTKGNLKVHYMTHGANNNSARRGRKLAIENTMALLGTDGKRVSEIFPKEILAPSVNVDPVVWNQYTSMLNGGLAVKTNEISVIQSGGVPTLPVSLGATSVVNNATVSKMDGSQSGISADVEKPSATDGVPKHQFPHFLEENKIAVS
Strand,E-score
ATTGTCTC,0.00485
AAACAACG,0.0893
GGGCTGGA,-0.223
GACGGACA,-0.113
ACTCGGCT,-0.19
AATGGCAA,0.156
ACCCGAAA,-0.0495
GTACGTGA,0.123
CATTCCCA,0.0774
ATGTCCGG,-0.175
AGTATGAG,0.222
ACGGAAGA,-0.0169
CCTCTCAG,-0.323
GAGAGGAA,-0.0434
CACCTGTC,-0.16
ATGGAGGG,-0.0201

# Sample 3
# Target: RNA binding protein fox-1 homolog 2, RRM domain, GST-SBP tag (RBFOX2, Homo sapiens, UniProt O43251-10, residues 100-194)
# Method: RNA Bind-n-Seq
# Molecule type: RNA
# Sample: in vitro
# Concentration: 365 nM
# Setting: natural RNA segment, single round, ends assumed
# Reference: no-protein control
# Reading: higher = stronger binding
# All sequences stand within: GGGAGUUCUACAGUCCGACGAUC … UGGAAUUCUCGGGUGCCAA
Strand,RBNS enrichment (R)
UCUGCCACAAACAGAAUUCGAGACAUACUUAAUUUUGAAUUUCUCCUUGCCACGUUAAUAAAGCCAAAAGCAGCGGGUGCUAUUCGUGGCAACACACUUCACUGAACCCA,0.666
GUUUGAAUGUGUAAAUGGGUGAUCUCUCUGAGUCCUGGCAACAUCCAGCAAAACUACUGCUUAUUCUCCAAAGAAUAUUGGGAGCUCUCAAUCCUCGGUGAUAUGGGAAA,0.67
CCCAAUGGCUCUUUUGUGAAUGAUCUGUUUCGUUAUUGUUUAUUGUUGAGUCUGUAUAUCAACAGGGAGAGUGUUGUCUGCUCUUAAACAGGAAUGAAAGGGGGGAGGGG,0.944
GUAAAUUUGUAUUGUCUCAAUGUACAGUUUAACAGGGAUAGAGGGGAAAUAAUGUCCAUGCCAUUGUGUGUGGAAGAUUUACAGCUAAGCUGUAGUUGCAGAGUACAUGU,0.56
UACAAUUUAUUUUCCUUUAACUCUUCUAUGAUAUUUAAAGCGUGCAUCUGCCACAUUGAUGAUUAAAUUAGCAGUUUAGAUAACUUGAGUCCCUUUCCCUUUAUAUUUGA,0.904
UGGGGACAAGGAUCAUCUAUACAGUGAAAUCAUGUCUCAGUUCCCAUCUAGUAAAAUGGCUGAAGGGGAAGAGAAGGAGGACCAAUCUGAAGACAAGAGCUCACCCACUG,0.654
AAUUCUGAUUAGAGAUAUAGAUAUUACUGGAAACUAAUUGUUUUUUUUCUAUUGUACUCUGCUUUAUCAAAGAAGUAAAACAUUUAAAUCGUACUACAGAAAUUAAGAUG,0.505
CGAUUCACAGAGGUUUCAGGGGGACCCAAAUCACUGCUGGUUUUCAAUUUUUUUUUAACAAUACAUUUUUGUGGUCAGUUCCAACAGCACUGUCCGUACUUUUAAAACUG,0.516

# Sample 4
# Sequence: B1 (RNF38 RING domain)
# Method: yeast two-hybrid
# Sample: yeast
# Setting: mostly zero background
# Reference: not given
# Reading: higher = stronger interaction
# B1: RNF38 RING domain (UniProt Q9H0F5); chain PNNHQSEQTLCVVCMCDFESRQLLRVLPCNHEFHAKCVDKWLKANRTCPICRADASEVHRDS
target,lacZ reporter activity
UBE2U UBC core domain (UniProt Q5VVX9),0
CDC34 UBC core domain (UniProt P49427),0
UBE2L6 UBC core domain (UniProt O14933),0
UBE2E1 UBC core domain (UniProt P51965),0
UBE2G2 UBC core domain (UniProt P60604),0
UBE2N UBC core domain (UniProt P61088),0
UBE2Q2 UBC core domain (UniProt Q8WVN8),0
UBE2E2 UBC core domain (UniProt Q96LR5),0
UBE2V1 UBC core domain (UniProt Q13404),0
UBE2H UBC core domain (UniProt P62256),0
UBE2V2 UBC core domain (UniProt Q15819),0

# Some of these lines once more (sample 4):
target,lacZ reporter activity
UBE2E1 UBC core domain (UniProt P51965),0
UBE2G2 UBC core domain (UniProt P60604),0
UBE2N UBC core domain (UniProt P61088),0
UBE2Q2 UBC core domain (UniProt Q8WVN8),0
UBE2E2 UBC core domain (UniProt Q96LR5),0
